# Results pooled from the literature.
# A part holds a random share of what one study measured. Substitutions count along the parent as printed.

# Series 1
# Target: Interferon regulatory factor 7, full length, phosphomimetic (IRF7, Homo sapiens, UniProt Q92985, residues 1-503, S471D/S472D/S475D/S476D/S477D/S483D/S484D/S487D)
# UniProt Q92985, sequence (whole entry, unmodified, looked up): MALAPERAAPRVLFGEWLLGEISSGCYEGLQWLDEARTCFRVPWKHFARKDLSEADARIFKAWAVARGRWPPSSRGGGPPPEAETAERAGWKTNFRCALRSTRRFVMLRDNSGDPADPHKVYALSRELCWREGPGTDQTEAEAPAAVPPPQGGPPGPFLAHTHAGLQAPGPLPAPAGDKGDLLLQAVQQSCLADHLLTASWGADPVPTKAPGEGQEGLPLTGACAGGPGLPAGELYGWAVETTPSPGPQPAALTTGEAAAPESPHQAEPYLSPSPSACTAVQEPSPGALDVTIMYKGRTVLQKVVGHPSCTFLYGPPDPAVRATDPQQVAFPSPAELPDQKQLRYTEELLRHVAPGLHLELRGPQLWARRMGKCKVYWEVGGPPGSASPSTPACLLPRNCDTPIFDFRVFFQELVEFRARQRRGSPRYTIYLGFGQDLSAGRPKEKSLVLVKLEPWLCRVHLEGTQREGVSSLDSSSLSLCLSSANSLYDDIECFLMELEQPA
# Method: protein-binding microarray
# Molecule type: double-stranded DNA, one strand shown
# Sample: in vitro
# Tested at: 2200 nM top
# Notes: 60-bp whole probe
# Added: salmon DNA 0.4 mg/ml
# Reference: random background probes
# Direction: higher = stronger binding
# Shared flanks, not repeated: GCCTAGCAC … GTCTTGATTCGCTTGACGCTGCTG
Sequence,fitted relative affinity [z-score]
TTAGGTATTCTTCTCCTTTAGTGCTAG,0.948
TTAGGACTGCTTATTCTTTAGTGCTAG,0.055
TTAGGTTTCGTTCTCGGTTAGTGCTAG,6.79
TCACATTGCCTGTTTTTCACTGTGCTA,2.29
GACGGTTTAGGGTTTCGGGACGTGCTA,1.95
GACGATCTGAGTATCGAGACGTGCTAG,0.00578
TCACATCTGCAACATCTAACTGTGCTA,1.04
CTCTACATGTGTTTAAGAATGTGCTAG,0.848

# Series 2
# Target: inorganic phosphate, free oxyanion
# Method: microfluidic competitive inhibition
# Sample: in vitro, cell-free expressed
# Tested at: not given
# Notes: derived from inhibition constants, unchanged parent 615000 nM
# Direction: lower = stronger binding
# Parent: PafA, mature enzyme, eGFP fusion (Elizabethkingia meningoseptica, UniProt Q9KJX5); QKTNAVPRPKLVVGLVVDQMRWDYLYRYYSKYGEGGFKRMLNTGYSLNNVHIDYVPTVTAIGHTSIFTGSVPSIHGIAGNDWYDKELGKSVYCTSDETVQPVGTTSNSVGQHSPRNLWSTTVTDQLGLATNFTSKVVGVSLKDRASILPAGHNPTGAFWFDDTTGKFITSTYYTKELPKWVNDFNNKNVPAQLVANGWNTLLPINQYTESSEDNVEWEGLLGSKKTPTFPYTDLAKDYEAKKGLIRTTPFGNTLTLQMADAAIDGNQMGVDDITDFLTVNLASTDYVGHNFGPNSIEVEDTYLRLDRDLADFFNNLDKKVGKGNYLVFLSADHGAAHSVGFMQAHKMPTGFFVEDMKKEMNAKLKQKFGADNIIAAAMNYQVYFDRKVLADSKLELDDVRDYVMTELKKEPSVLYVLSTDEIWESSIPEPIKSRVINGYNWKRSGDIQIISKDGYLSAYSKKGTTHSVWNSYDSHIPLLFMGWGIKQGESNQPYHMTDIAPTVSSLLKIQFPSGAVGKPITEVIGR
Substitution,phosphate dissociation constant [µM]
I66V,576
L396V,665
Y24G,689
D162V,564
Y83V,467

# Series 3
# Target: Sal-like protein 4, full length isoform B (SALL4, Homo sapiens, UniProt Q9UJQ4-2, residues 1-616)
# Method: universal PBM
# Molecule type: double-stranded DNA, one strand shown
# Sample: in vitro
# Tested at: not given
# Notes: 8-mer, flanks averaged, mean of replicates
# Direction: higher = stronger binding
Sequence,E-score
ATGCGTAC,0.208
TCTCTTCA,-0.0167
ACTCCTAA,-0.0218
CCTTGCCG,-0.29
CAGTGACG,-0.108
CGTAGACA,-0.0406
CCCCGACA,-0.0334
ATGCGCGA,-0.11

# Series 4
# Target: PABPC1L2, full length, GST fusion (mouse, UniProt A0ABA7IW68)
# Method: RNAcompete
# Molecule type: RNA
# Sample: in vitro
# Tested at: 20 nM
# Notes: 7-mer, probes averaged, single round
# Reference: mean of 7-mers
# Direction: higher = stronger binding
# Target sequence (chain): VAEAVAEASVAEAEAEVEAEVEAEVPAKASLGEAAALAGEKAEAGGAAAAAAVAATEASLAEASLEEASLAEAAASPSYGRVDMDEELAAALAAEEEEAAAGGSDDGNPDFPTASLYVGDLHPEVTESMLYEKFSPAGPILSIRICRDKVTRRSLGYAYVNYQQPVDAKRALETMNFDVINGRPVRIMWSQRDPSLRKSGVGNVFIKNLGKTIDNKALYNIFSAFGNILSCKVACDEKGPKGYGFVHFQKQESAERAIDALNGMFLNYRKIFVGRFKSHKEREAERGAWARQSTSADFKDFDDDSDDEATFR
Sequence,7-mer Z-score
CUAUGUC,-0.313
CGUCUAG,-0.402
GAGCGUC,-0.249
AGAGGUC,-0.195
AUUCUUC,-0.296
UAACCGG,-0.144
UGGGGAA,0.445
UGUAGGU,-0.113

# Series 5
# Target: CCNB3, cyclin fold, Cln2 fusion (human)
# Method: yeast growth competition, sequencing
# Sample: yeast
# Notes: strong parent motif
# Reference: not given
# Direction: higher = stronger binding
# Parent: viral docking peptide; TSVRRALFTGGSD; partner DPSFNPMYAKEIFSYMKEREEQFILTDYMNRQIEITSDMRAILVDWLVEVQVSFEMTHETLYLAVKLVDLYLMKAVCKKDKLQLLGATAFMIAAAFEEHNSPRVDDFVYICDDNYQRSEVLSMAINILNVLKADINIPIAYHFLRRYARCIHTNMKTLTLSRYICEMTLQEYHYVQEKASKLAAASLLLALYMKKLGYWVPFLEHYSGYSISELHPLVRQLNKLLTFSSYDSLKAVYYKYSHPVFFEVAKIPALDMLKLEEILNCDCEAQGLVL
Substitution,normalised enrichment score
TSVRNALFTGGSD [R5N],0.168
TSVRRPLFTGGSD [A6P],0.258
TSVRRARFTGGSD [L7R],0.251
TSVRRALFTGRSD [G11R],1.23
TSVRRALFTGGSA [D13A],1.4
TSVRRALFTGGGD [S12G],1.63
TSVRRALFTIGSD [G10I],1.56
TSVRRALFTLGSD [G10L],1.55
TSERRALFTGGSD [V3E],0.0622
TSVRRALFNGGSD [T9N],1.49
TGVRRALFTGGSD [S2G],2.52
TSVRRALFTSGSD [G10S],2.5
TSVRRALFTYGSD [G10Y],1.4
TNVRRALFTGGSD [S2N],2.3
TSVRRATFTGGSD [L7T],0.147
TSVRRALFTGQSD [G11Q],2.08
TSVRRALFMGGSD [T9M],1.64
TSVRRADFTGGSD [L7D],0.0319
TSVRRALFTWGSD [G10W],1.27
TSVNRALFTGGSD [R4N],0.328
TSRRRALFTGGSD [V3R],0.564
TSVRRALFTGGND [S12N],2
TSVRYALFTGGSD [R5Y],0.16
TSVRRALFWGGSD [T9W],0.856
TSVRRAWFTGGSD [L7W],0.313

# For quick reference, copied from above (series 4):
Sequence,7-mer Z-score
AUUCUUC,-0.296
GAGCGUC,-0.249
UGUAGGU,-0.113
